Measurements pooled from the literature.
Protocols differ between the studies behind these lines. ± marks the error that the study gave.

SMILES	test	system	conditions	scale	quantity	result
CC(C)(C)c1ccc(O)c(CN(Cc2cc(C(C)(C)C)ccc2O)C2CCC(NC(N)=O)CC2)c1 (centres unmarked)		human liver microsomes	2000 ng/mL, time not given, freeze-thaw, 3 cycles, -20 °C		recovery	95.33 ± 0.6%
Cc1cccc([C@H]2N[C@@H](c3ccc4ccccc4c3)COC2(C)C)c1	shake-flask, 1-octanol/buffer		pH 7.4		logD	> 4.7
COc1ccc2nc(-c3ccccn3)c(N(C)c3ccc(F)cc3)n2c1		male CD-1 mouse, fasted, plasma	oral, 50 mg/kg, with: 1-aminobenzotriazole 50 mg/kg		AUC(0-inf)/AUC(0-last)	102%
CCO[C@H]1CCN(Cc2c(OC)cc(C)c3[nH]ccc23)[C@H](c2ccc(C(=O)O)cc2)C1		human severe hepatic impairment, plasma	oral, 200 mg single dose, median		unbound Cmax	1460 ng/mL
Cc1cc(-c2nnc(N)nc2-c2ccc(F)cc2)cc(Cl)n1	measured: rash	post-IO other solid tumour patients	oral, 100 mg once daily, treatment-related, grade 2		patients with immune-mediated AE	0%
[O]=[Co].[O]=[Co][O][Co]=[O]		rat, female, faeces, 24-h collection	oral gavage, single, 300 mg/kg (220 mg Co/kg), day 3, vehicle 0.5% HPMC	reference: vehicle control subtracted	cobalt concentration	6.59 µg/g
Cc1cccc([C@H]2N[C@@H](c3ccc(Cl)c(Cl)c3)CO[C@@H]2C)c1	shake-flask, 1-octanol/buffer		pH 7.4		logD	> 4.7
CCOc1cc(-c2c(C)[nH]c3cc(OC)c(Cl)cc3c2=O)ccc1F	chromatographic		pH 7.4		logD	2.9
CCOC(=O)c1c(NC(=O)CNC(C)C)sc2c1CCCCC2		mice (male), brain	intraperitoneal, 100 mg/kg, 1 h		brain concentration	8020 ng/g
C[C@H](NC(=O)[C@H](CCC(N)=O)NC(=O)[C@H](C)NC(=O)[C@H](CCCNC(=N)N)NC(=O)[C@H](CCC(N)=O)NC(=O)[C@H](C)NC(=O)[C@H](CCCNC(=N)N)NC(=O)[C@H](CCC(N)=O)NC(=O)[C@H](C)NC(=O)[C@H](CCC(N)=O)NC(=O)[C@H](CCCNC(=N)N)NC(=O)[C@H](C)NC(=O)[C@H](CCC(N)=O)NC(=O)[C@H](CCCNC(=N)N)NC(=O)[C@H](C)NC(=O)[C@H](CCC(N)=O)NC(=O)[C@H](C)NC(=O)[C@H](CCCNC(=N)N)NC(=O)[C@H](CCC(N)=O)NC(=O)[C@H](C)NC(=O)[C@H](CCCNC(=N)N)NC(=O)[C@H](CO)NC(=O)[C@H](Cc1ccc(O)c(I)c1)NC(=O)CNC(=O)CNC(=O)CN)C(=O)N[C@@H](CCCNC(=N)N)C(=O)N[C@@H](CCC(N)=O)C(=O)N[C@@H](C)C(=O)N[C@@H](CCCNC(=N)N)C(=O)N[C@@H](CCC(N)=O)C(=O)O [iodine-125 labelled]		H2-Ld-huIL-6 Tg Balb/c mice, AA amyloidosis, stomach	intravenous, 4 h, decay-corrected		tissue uptake	23.2 %ID/g
Cl.[2H]C([2H])([2H])CC(=O)c1cnc(NC(=O)C2CC2)cc1Nc1cccc(-c2ncn(C([2H])([2H])[2H])n2)c1OC	geometric mean	human	oral, 20 mg once daily, day 7, fasted, liquid, multiple dose		half-life	6.99 h
CCN1/C(=C/C(C)=O)Sc2ccc(F)cc21		cynomolgus monkey	oral, 30 mg/kg, 4 h post-dose		systolic blood pressure	111 ± 8 mmHg
C[C@@H](Nc1cc(F)cc(F)c1)c1cc(C(=O)N(C)C)cc2c(=O)cc(N3CCOCC3)oc12	measured: Vomiting	advanced solid tumour patients	oral, dose not given, dose finding		related serious adverse events	1.6%
NC1(C(=O)N[C@@H](CCO)c2ccc(Cl)cc2)CCN(c2nc[nH]c3nccc2-3)CC1		metastatic CRPC patients	480 mg b.i.d., grade 3 to 4, treatment-related, with: enzalutamide 160 mg daily		incidence of SIRS	0%
c1cc(-c2ccc3ncnc(Nc4ncco4)c3c2)nc(N2CCOCC2)n1		human liver microsomes			CLint	73 µL/min/mg
Cc1ccc(N(C)C(=O)/C=C/c2ccco2)cc1	hot plate test	mice	oral, 30 mg/kg single, 45 min		licking latency	14.9 ± 0.6 s
CC1(CNC(=O)c2ccc(-c3ccccc3)cc2)NC(=O)NC1=O (centres unmarked)		octanol/buffer	pH 7.4		logD	2.36

Some of these lines once more:
SMILES	test	system	conditions	scale	quantity	result
C[C@@H](Nc1cc(F)cc(F)c1)c1cc(C(=O)N(C)C)cc2c(=O)cc(N3CCOCC3)oc12	measured: Vomiting	advanced solid tumour patients	oral, dose not given, dose finding		related serious adverse events	1.6%
Cc1ccc(N(C)C(=O)/C=C/c2ccco2)cc1	hot plate test	mice	oral, 30 mg/kg single, 45 min		licking latency	14.9 ± 0.6 s
C[C@H](NC(=O)[C@H](CCC(N)=O)NC(=O)[C@H](C)NC(=O)[C@H](CCCNC(=N)N)NC(=O)[C@H](CCC(N)=O)NC(=O)[C@H](C)NC(=O)[C@H](CCCNC(=N)N)NC(=O)[C@H](CCC(N)=O)NC(=O)[C@H](C)NC(=O)[C@H](CCC(N)=O)NC(=O)[C@H](CCCNC(=N)N)NC(=O)[C@H](C)NC(=O)[C@H](CCC(N)=O)NC(=O)[C@H](CCCNC(=N)N)NC(=O)[C@H](C)NC(=O)[C@H](CCC(N)=O)NC(=O)[C@H](C)NC(=O)[C@H](CCCNC(=N)N)NC(=O)[C@H](CCC(N)=O)NC(=O)[C@H](C)NC(=O)[C@H](CCCNC(=N)N)NC(=O)[C@H](CO)NC(=O)[C@H](Cc1ccc(O)c(I)c1)NC(=O)CNC(=O)CNC(=O)CN)C(=O)N[C@@H](CCCNC(=N)N)C(=O)N[C@@H](CCC(N)=O)C(=O)N[C@@H](C)C(=O)N[C@@H](CCCNC(=N)N)C(=O)N[C@@H](CCC(N)=O)C(=O)O [iodine-125 labelled]		H2-Ld-huIL-6 Tg Balb/c mice, AA amyloidosis, stomach	intravenous, 4 h, decay-corrected		tissue uptake	23.2 %ID/g
